Published values pooled from the literature.
Every numbered part comes from another study and shows a few of its results, in no order. Changes are numbered by the printed parent chain.

Set 1
Target: CCNB2, cyclin fold, Cln2 fusion (human)
Technique: yeast growth competition, sequencing
Medium: yeast
Notes: weak parent motif
Relative to: not given
Direction: higher = stronger binding
Starting sequence: RBL1 docking peptide (human); GSAKRRLFGEDPP; partner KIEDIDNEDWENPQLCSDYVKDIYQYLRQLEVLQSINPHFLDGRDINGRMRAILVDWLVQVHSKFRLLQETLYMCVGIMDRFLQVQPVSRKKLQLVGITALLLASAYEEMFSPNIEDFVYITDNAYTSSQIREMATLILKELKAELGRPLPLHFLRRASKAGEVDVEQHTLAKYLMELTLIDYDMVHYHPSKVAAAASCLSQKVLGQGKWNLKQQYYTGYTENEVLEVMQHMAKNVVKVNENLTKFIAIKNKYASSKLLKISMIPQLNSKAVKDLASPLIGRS
Variant	normalised enrichment score
GSAKRRLFGEDPK [P13K]	0.155
GSAFRRLFGEDPP [K4F]	0.771
GCAKRRLFGEDPP [S2C]	0.69
GSAKRRLFMEDPP [G9M]	0.22
GSAKRRLDGEDPP [F8D]	0.00355
GSAKRRLFGEDPM [P13M]	-0.206
GSAKRLLFGEDPP [R6L]	-0.585
GSAKRRLFGEDPY [P13Y]	-0.00986
GSLKRRLFGEDPP [A3L]	-0.296
GSAKRRLFPEDPP [G9P]	0.201
GSAKRRLFGNDPP [E10N]	0.512
GSAKRRLFGEDPW [P13W]	0.47
MSAKRRLFGEDPP [G1M]	-0.567
VSAKRRLFGEDPP [G1V]	1
GSQKRRLFGEDPP [A3Q]	-0.0947
GFAKRRLFGEDPP [S2F]	0.32
GSAQRRLFGEDPP [K4Q]	-0.31
GSAIRRLFGEDPP [K4I]	0.243
GSAKRRLCGEDPP [F8C]	0.0118
GSAKRRLYGEDPP [F8Y]	-0.199
GSAKRYLFGEDPP [R6Y]	-0.0362
GSAKRRLFGEIPP [D11I]	-0.293

Set 2
Target: Ras GTPase-activating protein-binding protein 1, full length (G3BP1, Homo sapiens, UniProt Q13283)
Sequence of UniProt Q13283 (whole entry, looked up): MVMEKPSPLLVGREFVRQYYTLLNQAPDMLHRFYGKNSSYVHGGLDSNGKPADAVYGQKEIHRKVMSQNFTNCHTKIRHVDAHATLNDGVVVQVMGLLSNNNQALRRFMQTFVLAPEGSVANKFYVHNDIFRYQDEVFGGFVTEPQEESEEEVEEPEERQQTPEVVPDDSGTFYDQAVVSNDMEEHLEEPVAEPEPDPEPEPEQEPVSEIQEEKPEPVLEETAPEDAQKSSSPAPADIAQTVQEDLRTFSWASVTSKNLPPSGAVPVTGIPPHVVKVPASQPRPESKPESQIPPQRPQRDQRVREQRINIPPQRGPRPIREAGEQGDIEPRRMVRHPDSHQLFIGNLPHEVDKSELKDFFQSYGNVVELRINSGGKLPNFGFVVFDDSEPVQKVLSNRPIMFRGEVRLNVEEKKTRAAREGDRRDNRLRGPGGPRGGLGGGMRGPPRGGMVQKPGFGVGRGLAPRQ
Technique: RNA Bind-n-Seq
Form: RNA
Medium: in vitro
Concentration: 200 nM
Notes: whole 134-nt RNA, ends assumed
Added: 150 mM LiCl
Relative to: input library
Direction: higher = stronger binding
Library: 7-deaza-guanosine replaces G
Sequence	log2 enrichment
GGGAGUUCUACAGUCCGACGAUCAAGUCCUGUGCUACACAUCGUAUGUACCGAAUCGGUUUUUUUGGAAAAAAAGGAGGAAAGUAUUAUGUUACGCCGUUCGGAUCUGCACUUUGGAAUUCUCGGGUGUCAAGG	-2.06
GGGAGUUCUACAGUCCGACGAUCAAGUCCUGUGCUACACAUCGUAUGUACCGAAUCGGGUUUGGGUUUUUUUGGGAGGGAAAGUAUUAUGUUACGCCGUUCGGAUCUGCACUUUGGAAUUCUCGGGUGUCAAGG	0.652
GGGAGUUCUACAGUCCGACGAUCUUGAGAAGAAGCAAAAAGAGAUGGAUGAAGCUGCUACGGUGAGAGAAAACCCACUAUCGAUUCCACUCACCACUUACCUCCUUCCCUUACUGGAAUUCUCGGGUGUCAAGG	-0.82
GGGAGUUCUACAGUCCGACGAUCGUCCUGUGCUACACAUCGUAUGUACCGAAUCGGGAAAGGGAAAAAGGGAAAAAAAGGGAAAGUAUUAUGUUACGCCGUUCGGAUCUGCACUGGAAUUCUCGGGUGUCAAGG	0.118
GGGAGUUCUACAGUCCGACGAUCUUGCGCCUGUCCCGGGUGAAGUGUGUCGGCCUCUCCGCACGCACCACGGAGACCAGCAGUGCAGUCAUGUGCCUGGACCUUGCAGCUUCCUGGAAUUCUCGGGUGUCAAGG	0.0303
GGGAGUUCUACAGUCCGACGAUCUGUGCUACACAUCGUAUGUACCGAAUCGGGGAAAAAAAGGGGAAAAAGGGGUUUUUUUGGGGAAAGUAUUAUGUUACGCCGUUCGGAUCUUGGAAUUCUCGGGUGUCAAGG	-0.232
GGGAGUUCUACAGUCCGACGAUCAGUCCUGUGCUACACAUCGUAUGUACCGAAUCGGGGCCCCGGGGCCCCGGGCCCCGGGAAAGUAUUAUGUUACGCCGUUCGGAUCUGCACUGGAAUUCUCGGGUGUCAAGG	-1.15
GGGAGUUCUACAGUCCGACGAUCUGCAGUCGAGCCAGCACCUGUUUCUGGACCUGCCUAAGGUAAGUGAGCUUUUCUCUCAACCUAGUUUUCAGGAGGCCUCUUCUGUCCCCUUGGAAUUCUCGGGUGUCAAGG	0.222
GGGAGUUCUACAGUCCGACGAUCGCAGGAAGUAAAAACAAAUGGAAAUGCUUCGGAUAGUGGCAGGGGUGGGGGUUGCUAAGGAAAGGGUGGGAUGGGAGUGGGUAAAGAGAUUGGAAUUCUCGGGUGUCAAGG	-0.169
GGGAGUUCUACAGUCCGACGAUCUCAAGUCCUGUGCUACACAUCGUAUGUACCGAAUCGGGUUGGGUUGGGUUGGGGAAAGUAUUAUGUUACGCCGUUCGGAUCUGCACUUCCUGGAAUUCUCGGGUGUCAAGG	0.243
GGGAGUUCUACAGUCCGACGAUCACCAUGCAGGUGGGCAUCUUUGGGAAGUGGGGCAAGGGGGGGAUAGGGAGGGGGGUAACACUUUGGGAACAGGUGGUCCCAGGUCGUUUCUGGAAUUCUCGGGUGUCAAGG	-0.241

Set 3
Target: ABI1, truncated, D143A, DHFR fusion (Arabidopsis thaliana, UniProt P49597)
Technique: DHFR PCA, dose-response
Medium: yeast
Notes: Hill fit, mean, not affinity
Added: (+)-ABA, dose series
Direction: lower = more sensitive
Starting sequence: PYL1, truncated, DHFR fusion (Arabidopsis thaliana, UniProt Q8VZS8); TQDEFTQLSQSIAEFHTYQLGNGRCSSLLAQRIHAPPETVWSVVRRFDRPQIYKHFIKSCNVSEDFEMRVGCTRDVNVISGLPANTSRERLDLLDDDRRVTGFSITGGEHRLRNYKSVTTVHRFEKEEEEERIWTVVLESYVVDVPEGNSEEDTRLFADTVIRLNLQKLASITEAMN
Variant	ABA EC50 [µM]
E131S	3.25
P146R	509
I12G	257
D95M	24.6
E67C	2.86
V78C	9.61
G81C	93.2
T119I	14.9
S63D	2.72
G107E	37.9
K116R	2.94
L93K	6.99
R49K	2.15
S9D	2.46
E139I	3.66
I162C	27.6
R113Q	1.74
T173S	2.44

Set 4
Target: Myc proto-oncogene protein, bHLH-zipper, MAX partner unstated (MYC, Homo sapiens, UniProt P01106, residues 368-449)
Sequence of UniProt P01106 (368-449, looked up): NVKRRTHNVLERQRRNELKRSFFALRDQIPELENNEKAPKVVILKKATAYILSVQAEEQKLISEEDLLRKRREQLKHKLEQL
Technique: protein-binding microarray
Form: double-stranded DNA, one strand shown
Medium: in vitro
Concentration: not given
Notes: k-mer, scored over probes, only values ≥0.25
Direction: higher = stronger binding
Sequence	E-score
ATGTGTGG	0.309
CACGAGGG	0.472
GCGCGCGC	0.281
ATCACGAG	0.329
ACGTGGCT	0.46
GTGTTGCA	0.3
TCACATGA	0.287
ACCAGGTG	0.29
CGCGAGGC	0.299
ATGTGCGA	0.347
CATACATG	0.268
CGCATGTC	0.418
ACCACACC	0.292
AAGTGTGC	0.253
CGCGGCCA	0.293
GTGTCAAA	0.265
CACGAGGC	0.473
CCACGATA	0.289
GGGGCGGA	0.26
ATGCGTGC	0.421
ATGCTGTC	0.259

Set 5
Target: JUN, bZIP domain (human)
Technique: DHFR protein complementation
Medium: yeast
Notes: single substitutions, most at no-binding floor
Relative to: wild-type JUN-FOS pair
Direction: higher = stronger binding
Starting sequence: JUN, bZIP domain (human); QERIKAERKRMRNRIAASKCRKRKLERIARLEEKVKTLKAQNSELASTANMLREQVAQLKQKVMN; partner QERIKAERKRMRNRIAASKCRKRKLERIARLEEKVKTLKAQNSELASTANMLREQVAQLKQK
Variant	binding fitness [natural log]
K36S	-0.321
E54F	-0.843
E32R	-0.442
A46W	-0.48
A49G	-0.524
K39D	-0.569
T37N	-0.167
V35E	-1.1
V56E	-0.919
T37E	-0.0196
Q41H	-0.506
R30G	-0.336
K34D	-0.29
E44N	-0.528

Set 6
Target: Histone acetyltransferase KAT6A, winged helix 2, GST fusion (KAT6A, Homo sapiens, UniProt Q92794, residues 85-181)
Technique: protein binding microarray
Form: double-stranded DNA, one strand shown
Medium: in vitro
Concentration: not given
Notes: 8-mer, flanks averaged, mean of 2 arrays, mostly near background
Relative to: not given
Direction: higher = stronger binding
Construct (chain): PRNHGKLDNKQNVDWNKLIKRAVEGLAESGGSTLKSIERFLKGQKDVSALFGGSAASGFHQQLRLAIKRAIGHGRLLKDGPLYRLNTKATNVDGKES
Sequence	E-score
GCGCCAAA	0.0521
TAGCTCGA	-0.0332
AACCGGCG	0.144
CTCGCTGA	0.00202
GACTGCTC	0.0282
CGATGTCA	-0.199
GGTATATA	0.00411
AAATCTAG	-0.0692
AGAATAAT	0.0273
ACTAACAT	-0.0899
CAGGTACG	0.0123
GGAGCGGA	0.0267
ATATGGCC	-0.0749
AGAGCGCC	0.159
AGGGCATG	0.0478
GCCCATTA	-0.13
CGCTAGCC	-0.0662
ATTTAGGG	-0.0814
GGTATCCA	0.144

Repeated from above (set 6):
Sequence	E-score
AGGGCATG	0.0478
GGTATATA	0.00411
ACTAACAT	-0.0899
ATTTAGGG	-0.0814
GGTATCCA	0.144
